Measurements pooled from the literature.
Lines come from different studies, so protocols differ.

With `CN(Cc1cc(C2CC2)on1)C(=O)c1cccc(-c2ccc(F)cc2)c1` the remaining compound was 100% (human liver microsomes; 2 µM, 0 min, pH 7.5, without ABT).
`O=C(NC1CCC(F)(F)CC1)C(c1cncnc1)N(C(=O)C(F)Cl)c1ccc(OC(F)(F)F)cc1` (stereo not drawn) has a remaining compound of 102% (human liver microsomes; concentration not given, 0.08333 h, pH 7.4).
For `CC(C)(C)[C@H](NC(=O)C(F)F)C(=O)N1C[C@H]2[C@@H]([C@H]1C(=O)N[C@H](C#N)C[C@@H]1CCCNC1=O)C2(C)C`, the remaining compound was 40.4% (human liver microsomes; 60 min, together with: NADPH).
`CCCCN1C(=O)c2cccc3c(N4CC[N+](C)(C5OC(C(=O)O)C(O)C(O)C5O)CC4)ccc(c23)C1=O` (stereo not drawn) gave a remaining compound of 97.5% (human liver microsomes; 3.19 nM, 48 h, 4 °C).
With `Cc1cc(C)nc(NC(=S)N2CCN(c3ccc(C(F)(F)F)cn3)CC2)c1` the remaining compound was over 95% (aqueous buffer with 500 µM DTT; 48 h).
The remaining compound of `O=C(NC1CCC(F)(F)CC1)C(c1cncnc1)N(C(=O)C(F)Cl)c1ccc(-c2cncs2)cc1` (stereo not drawn) is reported as 40.8% (human liver microsomes; concentration not given, 1 h, pH 7.4).
With `CC(C)(C)[C@H](NC(=O)c1ccc(Oc2ccc(C(=O)N[C@H]3CCCC[C@@H]3O)cc2)cc1)C(=O)NCCN1CCCC1` the remaining compound was 75.8% (mouse liver microsomes; 1 µM, 60 min, pH 7.4, together with: with cofactors).
The remaining compound of `[2H]C(Cc1c[nH]c2ccccc12)(Nc1ccccc1)C(=O)O` (stereo not drawn) is reported as 92.7% (human liver microsomes; 1.5 µM, 60 min, pH 7.4, mean of replicates; relative to: 0 min).
`C[C@](C(=O)NC1CCC(F)(F)CC1)(c1cncnc1)N(C(=O)[C@H](F)Cl)c1ccc(OC(F)(F)F)cc1` gave a remaining compound of 76.1% (mouse liver microsomes; concentration not given, 0.08333 h, pH 7.4).

Repeated from above:
With `CN(Cc1cc(C2CC2)on1)C(=O)c1cccc(-c2ccc(F)cc2)c1` the remaining compound was 100% (human liver microsomes; 2 µM, 0 min, pH 7.5, without ABT).
